Results collected from several papers.
Numbered parts are unrelated; each lists some results of a single study. Substitutions count along the parent as printed.

Series 1
Target: Sal-like protein 4, full length isoform A (SALL4, Homo sapiens, UniProt Q9UJQ4, residues 1-1053)
UniProt Q9UJQ4, sequence (whole entry, looked up): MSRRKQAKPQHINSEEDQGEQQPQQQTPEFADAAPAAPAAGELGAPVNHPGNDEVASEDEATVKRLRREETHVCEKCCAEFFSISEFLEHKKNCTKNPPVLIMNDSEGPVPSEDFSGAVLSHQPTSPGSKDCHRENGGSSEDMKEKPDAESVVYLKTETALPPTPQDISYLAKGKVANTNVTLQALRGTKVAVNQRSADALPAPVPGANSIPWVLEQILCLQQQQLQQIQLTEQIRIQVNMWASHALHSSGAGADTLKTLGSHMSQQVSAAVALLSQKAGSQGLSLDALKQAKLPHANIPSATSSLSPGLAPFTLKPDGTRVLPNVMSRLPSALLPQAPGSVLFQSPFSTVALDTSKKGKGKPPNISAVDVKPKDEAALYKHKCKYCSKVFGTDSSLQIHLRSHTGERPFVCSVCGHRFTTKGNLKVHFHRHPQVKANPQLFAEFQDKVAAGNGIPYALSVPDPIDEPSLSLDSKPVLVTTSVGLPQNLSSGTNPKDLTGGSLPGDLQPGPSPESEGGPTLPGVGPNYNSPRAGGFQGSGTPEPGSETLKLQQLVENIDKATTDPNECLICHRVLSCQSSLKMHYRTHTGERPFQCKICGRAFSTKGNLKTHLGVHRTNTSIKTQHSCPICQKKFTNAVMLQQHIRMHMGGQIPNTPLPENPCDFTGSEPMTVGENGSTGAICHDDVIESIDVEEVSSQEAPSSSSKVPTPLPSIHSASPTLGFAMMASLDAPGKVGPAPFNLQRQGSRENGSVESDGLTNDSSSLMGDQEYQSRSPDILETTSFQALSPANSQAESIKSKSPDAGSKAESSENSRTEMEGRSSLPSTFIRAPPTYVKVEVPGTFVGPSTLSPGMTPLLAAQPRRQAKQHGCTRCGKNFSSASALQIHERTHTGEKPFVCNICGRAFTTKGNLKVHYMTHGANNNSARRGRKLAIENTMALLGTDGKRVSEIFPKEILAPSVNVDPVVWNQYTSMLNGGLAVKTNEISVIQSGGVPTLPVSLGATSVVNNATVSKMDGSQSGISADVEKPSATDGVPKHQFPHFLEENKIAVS
Technique: universal PBM
Molecule type: double-stranded DNA, one strand shown
Matrix: in vitro
Concentration: 600 nM
Setting: 8-mer, flanks averaged, mean of replicates
Direction: higher = stronger binding
Endpoint: E-score
CAATTAGG: 0.114
AAATCCGG: -0.144
GCAGCTAC: -0.12
ATTACGAA: 0.3
AACCAGAT: 0.0615
AACAGCCA: 0.107
CGACCTAA: -0.0244
AAAACAAG: 0.256
GACATGTA: 0.184
AACACGCA: 0.104
ACTATCCC: -0.109
AACCGGTA: -0.105
AATTGTAT: 0.297
CGGCGGAA: -0.187
TATCGCGA: 0.0713
AGACGTGA: 0.0335
AGTATCTC: 0.0174
AAGCTCCG: -0.185
CACGACTA: -0.0756
AGATGTGA: 0.103
AGCGCAAC: -0.077
AGCTGTCA: 0.046
GGTATTGA: 0.0484
GAGTAGAA: 0.122
CCTCAATA: 0.139

Series 2
Target: Histone acetyltransferase KAT6A, both winged helices, GST fusion (KAT6A, Homo sapiens, UniProt Q92794, residues 1-181)
Technique: protein binding microarray
Molecule type: double-stranded DNA, one strand shown
Matrix: in vitro
Concentration: not given
Setting: 8-mer, flanks averaged, mean of 2 arrays, mostly near background
Reference: not given
Direction: higher = stronger binding
Endpoint: E-score
Residues (chain): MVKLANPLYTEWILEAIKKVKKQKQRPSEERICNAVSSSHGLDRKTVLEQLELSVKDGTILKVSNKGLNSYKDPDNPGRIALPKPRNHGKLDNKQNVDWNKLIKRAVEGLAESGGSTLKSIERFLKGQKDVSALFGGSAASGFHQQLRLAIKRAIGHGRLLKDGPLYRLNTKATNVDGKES
CGGTACGC: 0.296
AGGGCACG: -0.045
ATAGTAAC: -0.0598
CTAGGTGC: -0.0374
GGGATAAA: -0.0338
CCGCCACC: 0.103
AAACACGC: 0.232
ACCTTTGG: -0.223
TCGCGCCA: 0.166
AAAGAGCA: -0.076
GTTCTTAA: -0.0548
ACACCTCC: -0.0615
CGTTACCC: 0.102
GAAGTACC: 0.122
ACGAATTA: -0.12
GTGTACTA: -0.00112
CGTGGAGC: 0.0871
CGGGCCTC: 0.188
CCCACTCA: -0.24
AGTGCCAT: -0.144

Series 3
Target: Hepatocyte nuclear factor 3-alpha (Foxa1, Mus musculus, UniProt P35582, residues 1-468, full length assumed)
Technique: EMSA with sequencing
Molecule type: double-stranded DNA, one strand shown
Matrix: in vitro
Concentration: 10 and 20 nM
Setting: whole designed probe, mean of two concentrations, ends assumed
Reference: negative control set to 0
Direction: higher = stronger binding
Endpoint: normalised bound fraction
All sequences stand within: GTGAGCGGTGCCCATTGATGGGGAAC … TTTCACTGGGATCGTGGGGAC
Construct (chain): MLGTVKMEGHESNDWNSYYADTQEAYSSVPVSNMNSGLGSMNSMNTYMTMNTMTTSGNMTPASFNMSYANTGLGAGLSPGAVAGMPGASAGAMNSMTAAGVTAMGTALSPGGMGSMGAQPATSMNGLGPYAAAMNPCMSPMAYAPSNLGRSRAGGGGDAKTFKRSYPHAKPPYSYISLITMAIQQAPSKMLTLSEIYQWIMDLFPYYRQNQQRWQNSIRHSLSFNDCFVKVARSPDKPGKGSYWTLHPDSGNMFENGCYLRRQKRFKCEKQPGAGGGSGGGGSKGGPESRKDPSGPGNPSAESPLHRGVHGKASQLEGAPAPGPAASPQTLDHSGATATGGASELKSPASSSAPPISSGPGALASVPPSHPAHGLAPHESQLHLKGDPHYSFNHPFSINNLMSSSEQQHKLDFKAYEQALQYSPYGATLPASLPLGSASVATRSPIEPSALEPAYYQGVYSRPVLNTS
ATGAAAGCAGCCCAGACGAGCTGTGAGCAGCTGGGCTGGATAATTGTGAAGGATTCATGCTTGTTGCTGTTACCCCCAGAGATTGCAGTGGGTAGATTGCTTTGACTTTTGTTGAACTGTTGACAAAAGCATTAGATACAAATGGGAACAAATAAAGTGGTGAGATGCCAGGAGGGCTTGGCAGGAGTAGTGG: 0.174 ratio
GTCAATTACGTGGGAAATAAAGATAAGGCAAATGCACTTGGTTCTCTGAACTATTCTGACATTAGAAGAAATGCCAAGTCTGGAGATATCTGCTGTTTACATTTCACAATAACCTAATCATGCATTTGCAGCTTTCTGGAGCAAAACACTAACTGTTCTCCAAACAGCCACCTGACAATCTAAGGCTGAAACA: 0.331 ratio
GAGCAGGTGGGATAGGGCACCAGCTTTGTGATTATGCTGGTTAGATTACAGTTGTGTCCTGCCACTGTTAATAATGGCAAATGAAACAAACAATGTAATCTCAGACTTCTTTTTGTTTTTCATAATCTGAGAAGGTGGTTAGTTCTTAGGTCAGGTCAGTTTCACCAATCTAAGGAGTTTTTTTCCTATTTTT: 0.0698 ratio
TAAGAAAGTAATAAACTAGGCTTGCCCTGGCAGTCATATTGTAATGGAACGCAGATACCTCATTGTGTGTGAATTTGAAATTAAAAAACAAAGTAAACATGGTGAGCTGCTACCATTGCTGCCCCCTCCCTGCCTTGCCCACTAAGGAGAGAGGCACTGCCTTGTTTCCCTTTGTATTTCAAGGAGCTTCTCG: 0.369 ratio
CCACTCAGCTGTTTTCTTAAACTTGGTTGAATAACTGGTATTCTTCCTGCTCACAAAGTCTTTGTTAGTGTGCATATTGCAAAACCATCCTAAGTAATCTGTCTGTGTCATCTGTATTAAAGGGAAGTTATGCATGGATTAGTGTATAATAGCATGGGTTAGGGAGAAAAATGAGTCACCAAAGTAGCTGGTT: -0.0594 ratio
ATACACTTCATTATGTCACTGTTGTTTGGTTGTGTTCTAGGCGAGAAACCACCTTTGGAAGGTTCACAGCAGCCCCAATTTAGCACTCTGCCATGTTTACATTGTCAGGCTGCATTGCCACTAGGGGGAACCATAGCTTTTTATCATCCCAGCCAGGGTGGCTGTGGGCAGCTTCTGCCTGGCAGGTAATAAG: 0.394 ratio
TAAAAATGCAACTATAAGTTAAGTCTAACTAATAAAAGTGTTCATTAGATGAGAACGAGAACGTCTTATAGAAAAATAGATGGAAATACTATGTAAACAATGAGTTAAAATCGCAGATTGAAGTGAAAAAAATACTAGCTAGATGTAAGACATGAACCTAGAGCAAATGAAATGCAGAAAGTTAAAAAGAGAA: 0.455 ratio
TGAGACACCAAGCATAGCCCAGCACTTAATTTTTAAAAAGGCTTAAAGTGTCACATACAGAAGCTCATTAAGTTAACAAGTGTACAGATGCTTGTTTACTTATTACGCACAATCTTACGAGGCCACACAATCTGAGCAATGATTAGGAGCTCAAAGTTTAGATCCAATCTCAGGACAACATGAAATAAATGAC: 0.419 ratio

Series 4
Variant: N149D
Target: ABI1, truncated, D143A, DHFR fusion (Arabidopsis thaliana)
Technique: DHFR PCA, deep sequencing
Matrix: yeast
Setting: methotrexate growth selection, single substitutions
Reference: wild-type fitted maximum
Direction: higher = stronger binding
Endpoint: relative binding score
Starting sequence: PYL1, truncated, DHFR fusion (Arabidopsis thaliana); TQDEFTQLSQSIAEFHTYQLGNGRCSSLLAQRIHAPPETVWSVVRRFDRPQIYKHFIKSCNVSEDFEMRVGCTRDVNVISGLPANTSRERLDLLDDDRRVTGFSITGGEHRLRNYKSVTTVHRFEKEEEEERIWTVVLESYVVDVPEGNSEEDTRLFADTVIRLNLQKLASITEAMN
with: (+)-ABA 0 µM: 14.2%
with: (+)-ABA 200 µM: 48.7%
with: (+)-ABA 710 µM: 69.2%
with: (+)-ABA 2500 µM: 72.9%
with: (+)-ABA 0.032 µM: 11.9%
with: (+)-ABA 4.8 µM: 10.8%

Series 5
Target: PABPC1L2, full length, GST fusion (mouse, UniProt A0ABA7IW68)
Technique: RNAcompete
Molecule type: RNA
Matrix: in vitro
Concentration: 20 nM
Setting: 7-mer, probes averaged, single round
Reference: mean of 7-mers
Direction: higher = stronger binding
Endpoint: 7-mer Z-score
Target sequence (chain): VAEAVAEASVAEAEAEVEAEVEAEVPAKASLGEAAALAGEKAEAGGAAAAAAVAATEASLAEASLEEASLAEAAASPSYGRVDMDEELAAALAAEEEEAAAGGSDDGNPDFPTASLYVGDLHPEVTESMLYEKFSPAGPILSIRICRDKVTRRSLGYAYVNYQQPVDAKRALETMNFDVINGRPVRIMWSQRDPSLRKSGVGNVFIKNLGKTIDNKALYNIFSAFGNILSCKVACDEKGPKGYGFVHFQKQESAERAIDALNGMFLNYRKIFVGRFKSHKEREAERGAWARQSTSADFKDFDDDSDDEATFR
GCGGAAC: 0.202
GAACCAG: -0.112
CUUUAAA: 0.591
ACAGGCU: -0.0174
AUCUAAU: -0.197
AUCUUAG: -0.231
CAAUAUC: -0.0246
AAACAUG: 3.46
AGCUGAA: 0.0478
CACCUGC: -0.115
UGCACUG: -0.173
AGCCUCA: -0.257
GUGUGCU: -0.101
AAGGGCC: 0.276
GAUAUAU: -0.0826
GGUGUUG: -0.0645
CAGUAAA: 0.996
GCCGAUA: -0.24
AUUUACA: 0.18
ACUUUAC: -0.148
CUAUACU: -0.34
AAGGAAG: 0.247
AGCCCUC: -0.331
CAUUGUC: -0.316
AACACUC: 0.111

Series 6
Target: Ras GTPase-activating protein-binding protein 1, full length (G3BP1, Homo sapiens, UniProt Q13283)
UniProt Q13283, sequence (whole entry, looked up): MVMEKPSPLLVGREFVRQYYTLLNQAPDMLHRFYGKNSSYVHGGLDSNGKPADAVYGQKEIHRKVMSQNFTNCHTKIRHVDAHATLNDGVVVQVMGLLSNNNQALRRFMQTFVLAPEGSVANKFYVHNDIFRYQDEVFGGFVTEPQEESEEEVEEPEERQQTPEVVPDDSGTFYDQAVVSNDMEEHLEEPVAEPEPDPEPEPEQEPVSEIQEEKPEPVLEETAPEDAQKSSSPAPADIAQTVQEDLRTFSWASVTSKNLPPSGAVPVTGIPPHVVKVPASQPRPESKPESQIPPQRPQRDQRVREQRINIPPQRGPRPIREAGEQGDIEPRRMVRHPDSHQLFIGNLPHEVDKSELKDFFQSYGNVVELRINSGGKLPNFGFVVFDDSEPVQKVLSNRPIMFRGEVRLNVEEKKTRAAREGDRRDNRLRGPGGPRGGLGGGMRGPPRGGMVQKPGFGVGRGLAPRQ
Technique: RNA Bind-n-Seq
Molecule type: RNA
Matrix: in vitro
Concentration: 200 nM
Setting: whole 134-nt RNA, ends assumed
With: 150 mM LiCl
Reference: input library
Direction: higher = stronger binding
Endpoint: log2 enrichment
All molecules: 7-deaza-guanosine replaces G
All sequences stand within: GGGAGUUCUACAGUCCGACGAUC … UGGAAUUCUCGGGUGUCAAGG
GCAGGAAGUAAAAACCAAUGGAAAUGCUUCGGAUAGUGGCAGGGGUGGGGGUUGCUAAGGAAAGGGUGGGAUGGGAGUGGGUAAAGAGUU: 0.071
ACCAUGCAGGUGGGCAUCUUUGGGAAGUGGGGCAAGGGGGGGAUAGGGAGGGGGGUAACACUUUGGGAACAGGUGAUCCCAGGUCGUUUC: 0.171
GUCCUGUGCUACACAUCGUAUGUACCGAAUCAAACCCCCCCAAAUUUUUAAAUUUAAAAAAGUAUUAUGUUACGCCGUUCGGAUCUGCAC: 1.04
GUCCUGUGCUACACAUCGUAUGUACCGAAUCGGGGUUUUUGGGUUUUUGGGGUUUUUGGAAAGUAUUAUGUUACGCCGUUCGGAUCUGCA: -0.0509
UCAAGUCCUGUGCUACACAUCGUAUGUACCGAAUCGGAGGAAAAAGGAAAAAGGAAAGUAUUAUGUUACGCCGUUCGGAUCUGCACUUCC: -0.425
UAACUUUAGAGGAGGAUCUGAUGGAUAUGGCAGUGGAAGUGGAUUUGGGGAUGGCUAUAAUGGGUAUGGAGGAGGACCUGGAGGUGGCAA: -0.036
GUCCUGUGCUACACAUCGUAUGUACCGAAUCGGGUUUUUGGUUUUUGGGUUUUUGGGGAAAGUAUUAUGUUACGCCGUUCGGAUCUGCAC: -0.586
UUUUCUGCAUGGACCGUGCCCUAGAAUUUGCCCCUGCCUGCCAUCGCUUCAAAAUCCUCAAGGCAGAAUGUUUAGCAAUGCUGGGUCGUU: 0.156
UAACUUUAGAGGAGGAUCUGAUGGAUAUGGCAGUGGACGUGGAGUUGGGGAUGGCUAUAAUGGGUAUGGAGGAGGACCUGGAGGUGGCAA: -0.344
GCCACCAUGCCCACCUAGUUUUUGCAUUUUUAGUGGAGGUGUGGUUUCACUGUGUUGGCCAGGCUGGUCUCUUAACUCCUGACCUCAGGU: -0.454
AAGUCCUGUGCUACACAUCGUAUGUACCGAAUCGGCCCCGGGCCCCGGGGCCCCGGAAAGUAUUAUGUUACGCCGUUCGGAUCUGCACUU: -1.06
